Results from different studies.
Lines come from different studies, so protocols differ. Values joined by “and” are separate records of one study, mostly repeats; a detail may differ. Numbers after ± are the reported error.

For CC(=O)OC/C(C)=C/CCP(=O)(OCOC(=O)CC1CCOCC1)Oc1ccc(C(C)C)cc1 (stereo not shown), the half-life was 0.43 min (50% CD1 mouse plasma; 100 µM, pH 7.5, 37 °C).
O=C/C=C/c1ccccc1 gave a half-life of 4.84 ± 0.05 min (human liver microsomes; 10 µM, pH 7.4).
Cn1ncc(-c2nc(N[C@H]3CC[C@H](N)CC3)ncc2Cl)c1CC1CC1 has a half-life of 1490 min (HPLC-MS/MS; patients, plasma; oral, 3 mg, day 5).
CC(C)[N+](C)(CCOC(=O)C1c2ccccc2Oc2ccccc21)C(C)C has a half-life of 31.6 ± 1.1 min (mouse plasma; plasma stability).
For CC[C@H](C)[C@H](NC(=O)[C@H](Cc1ccccc1)NC(=O)[C@H](CC(=O)O)NC(=O)[C@H](CCCNC(=N)N)NC(=O)[C@H](Cc1ccccc1)NC(=O)[C@H](Cc1ccccc1)NC(=O)[C@H](CCCCN)NC(=O)[C@H](CO)NC(=O)[C@H](CC(C)C)NC(=O)[C@H](CCCNC(=N)N)NC(=O)[C@H](CCSC)NC(=O)[C@H](C)N)C(=O)N[C@@H](CC(C)C)C(=O)N[C@@H](CCC(N)=O)C(=O)N[C@@H](CCCNC(=N)N)C(=O)N[C@@H](CCCCN)C(=O)N[C@@H](CCCCN)C(=O)O, the half-life was 90 min (trypsin/chymotrypsin in ammonium carbonate; 0.066 mM, pH 8.0, 37 °C, added: trypsin/chymotrypsin 0.05 µg/mL).
C/C(=C\CCP(=O)(OCOC(=O)c1ccccc1)Oc1ccc(C(C)C)cc1)CO (stereo not shown) gave a half-life of 1.2 min (50% CD1 mouse plasma; 100 µM, pH 7.5, 37 °C).
O=C(O)Cc1ccccc1Nc1c(Cl)cccc1Cl gave a half-life of 5.5 min (human liver microsomes; 1 µM, pH 7.4).
CC(C)C[C@@H](NC(=O)[C@H](Cc1ccccc1)NC(=O)CNC(=O)[C@@H](C)NC(=O)[C@H](Cc1ccc(O)cc1)NC(=O)[C@@H]1CCCN1C(=O)c1ccc[n+](C)c1)C(=O)O has a half-life of 346 min (HPLC-UV; 20% rat brain homogenate; pH 7.4).
For C/C=C1/CN2CC[C@@]34c5cc(O)ccc5N(C)[C@]35OC[C@@]4(C(=O)OC)[C@H]1C[C@H]25, the half-life was 13.5 ± 0.9 min (rat liver microsomes, male; 1 µM, pH 7.4, protein 1 mg/mL, added: NADPH 1 mM).
The half-life of CC(=O)OC/C(C)=C/CCP(=O)(OCOC(=O)CC1CCOCC1)Oc1cccc2ccccc12 (stereo not shown) is reported as 1.2 min (50% CD1 mouse plasma; 100 µM, pH 7.5, 37 °C).
The half-life of CCCCCn1cc(C(=O)Nc2cccc3ccccc23)c2ccccc21 is reported as 2.29 min (male human liver microsomes; 1 µM, pH 7.4, 37 °C).
COc1ccc(C(=O)OCOP(=O)(CC/C=C(\C)CO)Oc2ccc(C(C)C)cc2)cc1 (stereo not shown) has a half-life of 0.85 min (50% CD1 mouse plasma; 100 µM, pH 7.5, 37 °C).
CC[C@H](C)[C@H](NC(=O)[C@H]1CCC[C@@H]1NC(=O)[C@H](CC(=O)O)NC(=O)[C@H](CC(C)C)NC(=O)[C@H](CCCCN)NC(=O)[C@H]1CCC[C@@H]1NC(=O)[C@H](CC(N)=O)NC(=O)[C@H](CO)NC(=O)[C@H]1CNC[C@@H]1NC(=O)[C@H](CCCNC(=N)N)NC(=O)[C@@H](NC(=O)[C@H](Cc1c[nH]c2ccccc12)NC(=O)C[C@H](CCC(=O)O)NC(=O)[C@H](CCCCN)NC(=O)[C@H](CO)NC(=O)C[C@H](CCC(=O)O)NC(=O)[C@H](CCC(=O)O)NC(=O)[C@H](CC(C)C)NC(=O)[C@H](CC(=O)O)NC(=O)[C@H]1CCC[C@@H]1NC(=O)[C@H](CCCCN)NC(=O)[C@@H](NC(=O)[C@H]1CNC[C@@H]1NC(=O)[C@H](CC(N)=O)NC(=O)[C@H](CC(C)C)NC(=O)[C@@H](NC(=O)[C@H]1CCC[C@@H]1NC(=O)[C@H](CO)NC(=O)[C@@H](NC(=O)[C@H](CC(=O)O)NC(=O)[C@@H](NC(=O)[C@@H]1CCCN1C(=O)[C@H](CC(=O)O)NC(=O)[C@H](CC(C)C)NC(=O)[C@H](C)NC(=O)[C@@H](NC(C)=O)C(C)C)[C@@H](C)CC)[C@@H](C)CC)C(C)C)[C@@H](C)CC)[C@@H](C)CC)C(N)=O has a half-life of 4.27 min (UPLC; Tris-buffered saline; pH 7.6, 23 °C, added: proteinase K 8 µg/mL).
CCCCCCCCCCCCCCCC(=O)ONc1ccn([C@@H]2O[C@H](CO)[C@@H](O)[C@H]2O)c(=O)n1 gave a half-life of 171 min (human plasma; 2 µM, 37 °C).
For CCC(C(=O)Nc1sc(C(N)=O)c(C)c1C(=O)OC)c1ccc(F)cc1 (stereo not shown), the half-life was 102 min (human liver microsomes; 1 µM).
For CC(C)C[C@@H](NC(=O)[C@H](Cc1ccccc1)NC(=O)CNC(=O)[C@@H](C)NC(=O)[C@H](Cc1ccc(O)cc1)NC(=O)c1ccc[n+](C)c1)C(=O)O, the half-life was about 480 min (rat whole brain homogenate (20% w/w); pH 7.4, 37 °C).
With CSCC[C@H](NC(C)=O)C(=O)N[C@H]1CSSC[C@@H](C(=O)NCC(=O)N[C@@H](CO)C(=O)NCC(=O)N[C@@H](CO)C(=O)N[C@@H](CC(=O)O)C(=O)N[C@@H](Cc2ccc(O)cc2)C(=O)N[C@@H](CCCCN)C(=O)N[C@@H](CC(=O)O)C(=O)N[C@@H](CC(=O)O)C(=O)N[C@@H](CC(=O)O)C(=O)N[C@@H](CC(=O)O)C(=O)N[C@@H](CCCCN)C(N)=O)NC(=O)[C@H](Cc2ccccc2)NC(=O)[C@@H]2CCCN2C(=O)[C@H](Cc2c[nH]c3ccccc23)NC(=O)[C@H](CC(C)C)NC(=O)[C@H](CCSC)NC(=O)[C@H](Cc2c[nH]cn2)NC(=O)[C@H](Cc2ccccc2)NC(=O)[C@H](Cc2c[nH]cn2)NC(=O)[C@H]([C@@H](C)O)NC(=O)[C@H](Cc2ccccc2)NC1=O the half-life was about 210 min (human plasma 80%; 1 µM, pH 7.4, 37 °C).
The half-life of C[C@]12CC[C@H]3[C@@H](CCC4=CC(=O)CC[C@@]43C)[C@@H]1CC[C@@H]2O is reported as 4.4 min (mouse liver microsomes).
The half-life of C/C(=C\CCP(=O)(OCOC(=O)CC1CCCCC1)Oc1ccc(C(C)C)cc1)CO (stereo not shown) is reported as 3.1 min (50% CD1 mouse plasma; 100 µM, pH 7.5, 37 °C).
For O=S(=O)(F)Oc1cc(C(F)(F)F)cc(C(F)(F)F)c1, the half-life was 36 min (reactivity with N-α-acetyl-lysine, HPLC-MS; BBS buffer with acetonitrile; 1 mM, pH 10.2).
[Cl][Ru-]([Cl])([Cl])[Cl].[Na+].c1ccc2[nH]ncc2c1.c1ccc2[nH]ncc2c1 has a half-life of 9240 min (ICP-MS, item: total ruthenium; advanced solid tumour patients, plasma; iv infusion, 40 mg/m2, cycle 1 cohort mean).
CC(C)CC(=O)OC[C@H]1O[C@@](C#N)(c2ccc3c(N)ncnn23)[C@H](O)[C@@H]1O gave a half-life of 0.331 min (mouse whole blood; 5 µM).
CC(C)C[C@@H](NC(=O)[C@H](Cc1ccccc1)NC(=O)CNC(=O)[C@@H](C)NC(=O)[C@H](Cc1ccc(O)cc1)NC(=O)[C@@H]1CCCN1C(=O)[C@@H]1CCCN1C(=O)c1ccc[n+](C)c1)C(=O)O gave a half-life of 72 min (rat medulla oblongata homogenate; 100 µM, pH 7.4, 37 °C).
C[C@@H]1N=C(c2ccccc2F)c2cc(Br)ccc2-n2cnc(C(=O)O)c21 gave a half-life of 435 min (mouse liver S9 fraction; 10 µM, glucuronidation).
CC[C@H](C)[C@@H]1NC(=O)[C@H](Cc2ccc(O)cc2)NC(=O)[C@@H](N)CSSC[C@@H](C(=O)N2CCC[C@H]2C(=O)N[C@@H](CC(C)C)C(=O)NCC(N)=O)NC(=O)[C@H](CC(N)=O)NC(=O)[C@H](CCC(N)=O)NC1=O gave a half-life of 19400 min (phosphate buffer; 0.1 mg/mL, pH 2.0, 40 °C).
With C/C(=C\CCP(=O)(OCOC(=O)CC1CCOCC1)Oc1ccc(C(C)C)cc1)CO (stereo not shown) the half-life was 1.2 min (50% CD1 mouse plasma; 100 µM, pH 7.5, 37 °C).
For CCC(CNc1nc(-c2cn3ccnc3cc2C)nc2ccccc12)c1ccccc1 (stereo not shown), the half-life was 9 min and 9.1 min (human liver microsomes).
CN(C)C/C=C/C(=O)Nc1cc2c(Nc3ccc(F)c(Cl)c3)ncnc2cc1O[C@H]1CCOC1 has a half-life of 31.1 min (pH 7.4).
NC(=O)c1cc(N2CC2)c([N+](=O)[O-])cc1[N+](=O)[O-] gave a half-life of 113 min (substrate depletion; phenobarbital/β-naphthoflavone-induced rat liver microsomes; 1 µM, pH 7.4, 37 °C, added: NADPH).
For N#Cc1cccnc1, the half-life was 58400 min (PBS with 5% acetonitrile; 250 µM, pH 7.4, no glutathione).
The half-life of CCN1CC2(CCN(CCc3cc(F)ccc3F)CC2)O[C@H](C)C1=O is reported as 216 ± 12 min (ferret, plasma; intraperitoneal, 1 mg/kg).
CCCCc1ccc(NC(=O)C2=CCN(C)[C@@H]([C@H](O[C@@H]3O[C@H](CN)[C@@H](O)[C@H]3O)[C@H]3O[C@@H](n4ccc(=O)[nH]c4=O)[C@H](O)[C@@H]3O)C(=O)N2C)cc1 gave a half-life of 63.4 min (guinea pig, serum; insufflation, dose not given, dry powder combination single dose).
The half-life of Cc1ncc2n1-c1ccc(Cl)cc1C(c1ccccc1F)=NC2 is reported as 357 min (healthy volunteers, plasma; oral, 5 mg single dose, day 1, given alone).
C[C@]1(CO)Cc2ncn(-c3ccc(C#N)c(Cl)c3)c2C(=O)O1 has a half-life of 348 min (healthy Japanese adults, plasma; 80 mg once daily, after first dose, multiple dose).

Some of these lines once more:
With C/C(=C\CCP(=O)(OCOC(=O)CC1CCOCC1)Oc1ccc(C(C)C)cc1)CO (stereo not shown) the half-life was 1.2 min (50% CD1 mouse plasma; 100 µM, pH 7.5, 37 °C).
O=C(O)Cc1ccccc1Nc1c(Cl)cccc1Cl gave a half-life of 5.5 min (human liver microsomes; 1 µM, pH 7.4).
The half-life of CC(=O)OC/C(C)=C/CCP(=O)(OCOC(=O)CC1CCOCC1)Oc1cccc2ccccc12 (stereo not shown) is reported as 1.2 min (50% CD1 mouse plasma; 100 µM, pH 7.5, 37 °C).
For O=S(=O)(F)Oc1cc(C(F)(F)F)cc(C(F)(F)F)c1, the half-life was 36 min (reactivity with N-α-acetyl-lysine, HPLC-MS; BBS buffer with acetonitrile; 1 mM, pH 10.2).
CC(C)[N+](C)(CCOC(=O)C1c2ccccc2Oc2ccccc21)C(C)C has a half-life of 31.6 ± 1.1 min (mouse plasma; plasma stability).
The half-life of C/C(=C\CCP(=O)(OCOC(=O)CC1CCCCC1)Oc1ccc(C(C)C)cc1)CO (stereo not shown) is reported as 3.1 min (50% CD1 mouse plasma; 100 µM, pH 7.5, 37 °C).
